Published values gathered from unrelated publications.
A part holds a random share of what one study measured.
UniProt P42680, sequence (whole entry, looked up): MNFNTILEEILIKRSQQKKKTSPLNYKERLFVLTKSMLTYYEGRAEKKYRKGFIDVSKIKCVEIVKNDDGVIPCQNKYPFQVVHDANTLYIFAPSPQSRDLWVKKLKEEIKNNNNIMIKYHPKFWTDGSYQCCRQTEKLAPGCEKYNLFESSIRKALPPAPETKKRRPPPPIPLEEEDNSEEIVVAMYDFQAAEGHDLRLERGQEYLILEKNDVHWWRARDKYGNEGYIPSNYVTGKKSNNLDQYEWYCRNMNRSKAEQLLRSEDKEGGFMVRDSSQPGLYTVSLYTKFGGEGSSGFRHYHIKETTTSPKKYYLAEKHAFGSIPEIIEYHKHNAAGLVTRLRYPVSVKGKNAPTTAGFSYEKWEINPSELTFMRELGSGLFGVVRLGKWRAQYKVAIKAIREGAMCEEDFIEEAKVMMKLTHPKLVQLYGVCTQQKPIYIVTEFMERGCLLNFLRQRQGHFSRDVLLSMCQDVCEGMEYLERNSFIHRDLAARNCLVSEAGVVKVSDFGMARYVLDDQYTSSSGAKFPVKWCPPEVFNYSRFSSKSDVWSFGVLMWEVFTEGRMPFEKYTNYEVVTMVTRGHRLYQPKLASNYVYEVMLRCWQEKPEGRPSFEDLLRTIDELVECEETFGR
UniProt P07333, sequence (whole entry, looked up): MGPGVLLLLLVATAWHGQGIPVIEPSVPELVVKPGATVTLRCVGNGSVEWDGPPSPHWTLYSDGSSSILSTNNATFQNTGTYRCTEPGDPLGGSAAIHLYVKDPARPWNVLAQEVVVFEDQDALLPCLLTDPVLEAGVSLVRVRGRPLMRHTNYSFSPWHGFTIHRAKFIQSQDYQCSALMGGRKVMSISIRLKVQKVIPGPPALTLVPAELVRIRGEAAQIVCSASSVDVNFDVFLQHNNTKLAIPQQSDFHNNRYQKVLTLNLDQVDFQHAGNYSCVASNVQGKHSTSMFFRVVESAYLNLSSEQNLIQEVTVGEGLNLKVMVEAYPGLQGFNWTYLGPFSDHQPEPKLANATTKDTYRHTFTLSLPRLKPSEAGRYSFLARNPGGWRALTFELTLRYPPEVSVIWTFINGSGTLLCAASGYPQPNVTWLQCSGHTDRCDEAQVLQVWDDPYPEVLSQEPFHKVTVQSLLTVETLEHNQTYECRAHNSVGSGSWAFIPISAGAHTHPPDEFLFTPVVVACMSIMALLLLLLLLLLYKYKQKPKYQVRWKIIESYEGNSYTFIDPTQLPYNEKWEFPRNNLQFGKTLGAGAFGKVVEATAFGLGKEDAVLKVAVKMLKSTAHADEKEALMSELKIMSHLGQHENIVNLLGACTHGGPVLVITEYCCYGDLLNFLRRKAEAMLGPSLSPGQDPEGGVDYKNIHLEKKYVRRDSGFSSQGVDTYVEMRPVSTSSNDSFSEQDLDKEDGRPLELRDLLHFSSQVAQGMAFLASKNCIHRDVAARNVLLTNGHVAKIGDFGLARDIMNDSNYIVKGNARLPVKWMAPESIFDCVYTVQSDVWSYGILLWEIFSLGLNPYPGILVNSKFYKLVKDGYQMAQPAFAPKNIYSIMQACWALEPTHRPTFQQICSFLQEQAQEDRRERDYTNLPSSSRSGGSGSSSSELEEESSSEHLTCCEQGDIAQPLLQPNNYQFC
UniProt P51956, sequence (whole entry, looked up): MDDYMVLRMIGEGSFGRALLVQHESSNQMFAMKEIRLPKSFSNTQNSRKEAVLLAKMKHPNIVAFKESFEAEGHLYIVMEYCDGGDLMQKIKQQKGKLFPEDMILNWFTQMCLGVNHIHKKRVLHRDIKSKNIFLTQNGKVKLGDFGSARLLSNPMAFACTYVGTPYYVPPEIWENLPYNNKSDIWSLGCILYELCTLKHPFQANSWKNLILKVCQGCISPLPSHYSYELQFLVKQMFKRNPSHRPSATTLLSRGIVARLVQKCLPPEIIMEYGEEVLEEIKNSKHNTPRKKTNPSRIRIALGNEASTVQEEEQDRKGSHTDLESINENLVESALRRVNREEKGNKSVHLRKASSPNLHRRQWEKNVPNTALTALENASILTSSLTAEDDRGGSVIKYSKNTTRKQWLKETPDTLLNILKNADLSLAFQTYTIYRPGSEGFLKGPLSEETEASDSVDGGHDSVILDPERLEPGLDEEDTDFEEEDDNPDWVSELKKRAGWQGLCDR
UniProt P51955, sequence (whole entry, looked up): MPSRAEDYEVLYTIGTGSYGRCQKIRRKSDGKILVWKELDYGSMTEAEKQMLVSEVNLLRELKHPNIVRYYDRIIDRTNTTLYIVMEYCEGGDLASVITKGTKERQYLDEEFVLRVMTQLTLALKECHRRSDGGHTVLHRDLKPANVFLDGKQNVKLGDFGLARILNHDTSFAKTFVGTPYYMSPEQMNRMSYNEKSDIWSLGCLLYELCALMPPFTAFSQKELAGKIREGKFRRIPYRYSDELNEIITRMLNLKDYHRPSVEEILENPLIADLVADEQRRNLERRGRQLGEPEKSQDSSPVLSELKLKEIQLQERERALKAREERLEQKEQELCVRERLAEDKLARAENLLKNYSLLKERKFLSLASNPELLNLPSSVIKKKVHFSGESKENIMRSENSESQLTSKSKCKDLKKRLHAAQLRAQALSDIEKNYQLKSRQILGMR
UniProt Q9Y616, sequence (whole entry, looked up): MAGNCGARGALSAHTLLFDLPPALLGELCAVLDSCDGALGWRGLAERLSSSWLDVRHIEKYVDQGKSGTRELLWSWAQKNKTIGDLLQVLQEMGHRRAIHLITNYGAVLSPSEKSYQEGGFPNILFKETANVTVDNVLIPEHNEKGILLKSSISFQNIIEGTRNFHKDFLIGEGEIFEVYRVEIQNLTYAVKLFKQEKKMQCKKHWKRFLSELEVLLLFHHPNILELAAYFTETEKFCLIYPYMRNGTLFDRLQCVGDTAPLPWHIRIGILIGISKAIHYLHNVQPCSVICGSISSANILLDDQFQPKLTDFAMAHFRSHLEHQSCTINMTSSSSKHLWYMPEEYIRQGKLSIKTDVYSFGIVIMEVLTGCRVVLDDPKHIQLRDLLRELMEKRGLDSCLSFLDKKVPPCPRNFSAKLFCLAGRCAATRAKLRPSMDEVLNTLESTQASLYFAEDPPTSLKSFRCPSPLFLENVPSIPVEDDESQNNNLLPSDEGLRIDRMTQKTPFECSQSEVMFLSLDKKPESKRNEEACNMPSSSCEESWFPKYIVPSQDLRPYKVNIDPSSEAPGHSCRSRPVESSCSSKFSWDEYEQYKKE
UniProt O95835, sequence (whole entry, looked up): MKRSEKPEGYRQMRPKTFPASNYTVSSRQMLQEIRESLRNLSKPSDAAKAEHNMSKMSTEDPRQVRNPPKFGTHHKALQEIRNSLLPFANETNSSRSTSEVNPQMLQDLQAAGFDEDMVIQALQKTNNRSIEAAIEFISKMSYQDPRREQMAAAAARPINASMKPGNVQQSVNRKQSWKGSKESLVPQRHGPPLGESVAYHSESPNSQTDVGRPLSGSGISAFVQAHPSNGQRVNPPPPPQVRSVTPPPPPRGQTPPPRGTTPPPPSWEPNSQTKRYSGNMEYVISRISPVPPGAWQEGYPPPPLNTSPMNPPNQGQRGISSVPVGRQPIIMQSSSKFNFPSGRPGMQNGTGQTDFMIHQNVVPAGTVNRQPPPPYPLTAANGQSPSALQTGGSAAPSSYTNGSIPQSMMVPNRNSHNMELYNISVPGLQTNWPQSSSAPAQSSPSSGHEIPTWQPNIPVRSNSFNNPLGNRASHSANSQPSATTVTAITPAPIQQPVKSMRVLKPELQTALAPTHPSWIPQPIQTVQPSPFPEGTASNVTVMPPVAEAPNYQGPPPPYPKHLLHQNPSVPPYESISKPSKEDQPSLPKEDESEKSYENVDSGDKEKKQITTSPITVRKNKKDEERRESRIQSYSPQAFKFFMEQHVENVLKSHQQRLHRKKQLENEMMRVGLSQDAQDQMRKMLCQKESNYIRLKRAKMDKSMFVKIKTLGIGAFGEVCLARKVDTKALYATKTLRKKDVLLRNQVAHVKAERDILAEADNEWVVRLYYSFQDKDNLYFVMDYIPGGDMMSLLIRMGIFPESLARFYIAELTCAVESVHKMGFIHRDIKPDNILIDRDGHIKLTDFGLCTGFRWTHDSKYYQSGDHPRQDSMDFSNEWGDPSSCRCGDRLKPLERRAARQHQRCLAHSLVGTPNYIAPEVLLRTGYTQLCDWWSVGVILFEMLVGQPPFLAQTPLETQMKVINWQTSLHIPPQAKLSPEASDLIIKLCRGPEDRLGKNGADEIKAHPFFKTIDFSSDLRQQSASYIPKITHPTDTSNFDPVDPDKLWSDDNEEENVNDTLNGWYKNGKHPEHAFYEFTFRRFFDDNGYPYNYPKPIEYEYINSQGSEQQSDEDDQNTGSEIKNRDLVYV
UniProt Q04759, sequence (whole entry, looked up): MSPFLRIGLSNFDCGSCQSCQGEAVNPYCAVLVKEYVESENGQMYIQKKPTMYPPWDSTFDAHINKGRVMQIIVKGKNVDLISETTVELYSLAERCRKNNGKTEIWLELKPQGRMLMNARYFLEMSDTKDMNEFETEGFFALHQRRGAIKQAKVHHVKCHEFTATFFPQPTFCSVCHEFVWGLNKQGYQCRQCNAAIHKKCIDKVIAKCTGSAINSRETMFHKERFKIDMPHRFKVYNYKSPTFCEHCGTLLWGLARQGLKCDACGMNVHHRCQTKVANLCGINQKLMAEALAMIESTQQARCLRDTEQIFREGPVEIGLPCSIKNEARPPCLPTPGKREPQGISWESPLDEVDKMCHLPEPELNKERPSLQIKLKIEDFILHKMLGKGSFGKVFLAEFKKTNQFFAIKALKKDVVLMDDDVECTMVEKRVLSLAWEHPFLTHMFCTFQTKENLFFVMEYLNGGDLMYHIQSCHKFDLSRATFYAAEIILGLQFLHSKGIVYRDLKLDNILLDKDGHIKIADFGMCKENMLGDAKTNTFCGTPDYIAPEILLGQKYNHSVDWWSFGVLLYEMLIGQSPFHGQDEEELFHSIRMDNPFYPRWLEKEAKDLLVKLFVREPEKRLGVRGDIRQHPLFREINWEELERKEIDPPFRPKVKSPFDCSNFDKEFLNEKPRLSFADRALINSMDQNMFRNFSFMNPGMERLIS

Block 1
Matrix: 1,9-decadiene/PBS
pH: 7.4
The logD of `CC(C)C[C@@H]1NC(=O)[C@H](CC(C)C)NC(=O)[C@@H](C(C)C)NC(=O)[C@H](C(C)C)NC(=O)[C@H](C)NC(=O)[C@@H](CC(C)C)NC(=O)[C@H](C)NC1=O` is reported as -1.06.
`CC(C)C[C@@H]1NC(=O)[C@H](CC(C)C)NC(=O)[C@H](CC(C)C)NC(=O)[C@H](C(C)C)NC(=O)[C@H](C(C)C)NC(=O)[C@H](C)NC(=O)[C@H](C)NC1=O` gave a logD of -0.661.
The logD of `CC(C)C[C@@H]1NC(=O)[C@H](CC(C)C)NC(=O)[C@H](CC(C)C)NC(=O)[C@H](C(C)C)NC(=O)[C@H](C(C)C)NC(=O)[C@H](Cc2cscn2)NC(=O)[C@H](C)NC1=O` is reported as -0.149.
`CC(C)C[C@@H]1NC(=O)[C@H](C(C)C)NC(=O)[C@@H](CC(C)C)NC(=O)[C@@H](CC(C)C)NC(=O)[C@@H](Cc2cscn2)NC(=O)[C@H](CC(C)C)NC(=O)[C@@H](CC(C)C)NC1=O` has a logD of 0.819.
The logD of `CC(C)C[C@@H]1NC(=O)[C@H](C)NC(=O)[C@H](Cc2cscn2)NC(=O)[C@H](CC(C)C)NC(=O)[C@@H](CCC(=O)N2CCCC2)NC(=O)[C@H](CC(C)C)NC(=O)[C@@H](CC(C)C)NC1=O` is reported as -1.3.
The logD of `CC(C)C[C@@H]1NC(=O)[C@H](C)NC(=O)[C@@H](CC(C)C)NC(=O)[C@H](C)NC(=O)[C@H](CC(C)C)NC(=O)[C@H](CC(C)C)NC(=O)[C@@H](CC(C)C)NC1=O` is reported as 0.479.

Block 2
Cell line: HaCaT
Tested at: 100 µM
Time: 60 h
`CC[C@H]1OC(=O)[C@H](C)[C@@H](O[C@H]2C[C@@](C)(OC)[C@@H](O)[C@H](C)O2)[C@H](C)[C@@H](O[C@@H]2O[C@H](C)C[C@H](N(C)C)[C@H]2O)[C@](C)(OC)C[C@@H](C)C(=O)[C@H](C)[C@@H](O)[C@]1(C)O` has a viability of 83.3%.
The viability of `N[C@H](Cc1ccccc1)C(=O)O` is reported as 134%.
With `C[C@@H]1C[C@H]2[C@@H]3CCC4=CC(=O)C=C[C@]4(C)[C@@]3(Cl)[C@@H](O)C[C@]2(C)[C@@]1(OC(=O)c1ccco1)C(=O)CCl` the viability was 16.5%.
`O=C(O)c1cc(-c2ccc(F)cc2F)ccc1O` gave a viability of 92.1%.
For `O=c1ccn([C@@H]2O[C@H](CO)[C@@H](O)[C@H]2O)c(=O)[nH]1`, the viability was 150%.
`Cc1nc2n(c(=O)c1CCN1CCC(c3noc4cc(F)ccc34)CC1)CCCC2O` (stereo not shown) has a viability of 131%.
For `Nc1ccccc1S(N)(=O)=O`, the viability was 143%.
For `COC(c1ccccc1)(c1ccccc1)[C@H](Oc1nc(C)cc(C)n1)C(=O)O`, the viability was 156%.
For `OC[C@H]1O[C@@H](c2ccc(Cl)c(Cc3ccc(O[C@H]4CCOC4)cc3)c2)[C@H](O)[C@@H](O)[C@@H]1O`, the viability was 125%.
`CC(C)C[C@H](NC(=O)[C@@H](O)[C@H](N)Cc1ccccc1)C(=O)O` gave a viability of 107%.
For `COC(=O)[C@@H]1CC2=CC(=O)CC[C@]2(C)[C@@]23O[C@@H]2C[C@@]2(C)[C@@H](CC[C@@]24CCC(=O)O4)[C@H]13`, the viability was 127%.

Block 3
Organism: Sarcocystis neurona
Observed: parasite growth
Tested at: 10 µM
`CC(C)c1ccc2c(c1)c(SC(C)(C)C)c(CC(C)(C)C(=O)O)n2Cc1ccc(Cl)cc1` has an inhibition of 7.4%.
`CCOC(=O)C1=C(C)NC(C)=C(C(=O)OC)C1c1cccc([N+](=O)[O-])c1` (stereo not shown) has an inhibition of 8.5%.
For `COc1ccc2c3c1O[C@H]1C[C@@H](O)C=C[C@@]31CCN(C)C2`, the inhibition was -22.2%.
`CC1=C(/C=C/C(C)=C/C=C/C(C)=C\C(=O)O)C(C)(C)CCC1` gave an inhibition of -31.8%.
For `CC(C)(C)C(O)/C=C/c1ccc2c(c1)OCO2` (stereo not shown), the inhibition was -34.9%.
The inhibition of `CC(C)(C)NCC(O)c1cc(O)cc(O)c1` (stereo not shown) is reported as -42.8%.
The inhibition of `O=c1n(CCCN2CCN(c3cccc(Cl)c3)CC2)nc2ccccn12` is reported as -27.6%.

Block 4
Structure (SMILES): CCCOc1ccc([C@H]2[C@H](C(=O)O)[C@@H](c3ccc4c(c3)OCO4)CN2CC(=O)Nc2c(CC)cccc2CC)cc1
Technique: competition with immobilised ligand
Tested at: 1 µM
It gave 81% for remaining binding (PRKCQ (Homo sapiens, UniProt Q04759); cell-free assay).
The remaining binding was 97% (MAPK7 (Homo sapiens, UniProt Q13164); cell-free assay).
TEC (Homo sapiens, UniProt P42680); binding — remaining binding: 100%.
LATS1 (Homo sapiens, UniProt O95835); cell-free assay — remaining binding: 77%.
The remaining binding was 69% (RIPK4 (Homo sapiens, UniProt P57078); cell-free assay).
For MAP3K3 (Homo sapiens, UniProt Q99759); cell-free assay: remaining binding read 74%.
SGK1 (Homo sapiens, UniProt O00141); cell-free assay — remaining binding: 63%.
IRAK3 (Homo sapiens, UniProt Q9Y616); cell-free assay — remaining binding: 100%.
The remaining binding was 99% (ACVR1B (Homo sapiens, UniProt P36896); cell-free assay).
For CDK15 (Homo sapiens, UniProt Q96Q40); cell-free assay: remaining binding read 94%.
For NEK3 (Homo sapiens, UniProt P51956); cell-free assay: remaining binding read 69%.
The remaining binding was 90% (NEK2 (Homo sapiens, UniProt P51955); cell-free assay).
It gave 90% for remaining binding (CSF1R (Homo sapiens, UniProt P07333); cell-free assay).
